Published values of several laboratories.
Numbered parts are unrelated; each lists some results of a single study.
Chain of UniProt P10721 (whole entry, unmodified, looked up): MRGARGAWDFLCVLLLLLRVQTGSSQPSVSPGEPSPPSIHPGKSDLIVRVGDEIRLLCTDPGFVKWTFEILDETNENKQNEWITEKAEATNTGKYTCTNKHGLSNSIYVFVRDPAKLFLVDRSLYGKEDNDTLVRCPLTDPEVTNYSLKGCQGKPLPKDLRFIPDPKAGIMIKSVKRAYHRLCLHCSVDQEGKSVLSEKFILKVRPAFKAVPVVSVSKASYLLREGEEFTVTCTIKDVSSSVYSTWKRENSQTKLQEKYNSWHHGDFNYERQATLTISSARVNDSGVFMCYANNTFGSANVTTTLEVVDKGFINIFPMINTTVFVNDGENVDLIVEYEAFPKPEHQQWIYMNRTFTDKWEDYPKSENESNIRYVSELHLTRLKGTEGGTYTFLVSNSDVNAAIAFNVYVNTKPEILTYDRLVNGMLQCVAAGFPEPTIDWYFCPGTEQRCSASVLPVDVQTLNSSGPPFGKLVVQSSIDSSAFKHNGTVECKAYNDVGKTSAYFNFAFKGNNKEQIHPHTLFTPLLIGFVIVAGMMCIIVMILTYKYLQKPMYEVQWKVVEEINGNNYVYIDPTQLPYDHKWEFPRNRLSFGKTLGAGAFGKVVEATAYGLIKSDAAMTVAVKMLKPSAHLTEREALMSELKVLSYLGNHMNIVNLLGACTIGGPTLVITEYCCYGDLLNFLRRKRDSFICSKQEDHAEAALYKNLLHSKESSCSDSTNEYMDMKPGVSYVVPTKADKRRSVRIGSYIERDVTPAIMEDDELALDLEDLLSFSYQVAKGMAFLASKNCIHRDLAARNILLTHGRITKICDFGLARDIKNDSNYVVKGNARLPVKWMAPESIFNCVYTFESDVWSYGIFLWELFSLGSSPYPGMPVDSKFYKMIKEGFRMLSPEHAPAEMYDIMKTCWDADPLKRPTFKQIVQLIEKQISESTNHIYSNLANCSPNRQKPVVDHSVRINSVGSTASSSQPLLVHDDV
Chain of UniProt P07332 (whole entry, looked up): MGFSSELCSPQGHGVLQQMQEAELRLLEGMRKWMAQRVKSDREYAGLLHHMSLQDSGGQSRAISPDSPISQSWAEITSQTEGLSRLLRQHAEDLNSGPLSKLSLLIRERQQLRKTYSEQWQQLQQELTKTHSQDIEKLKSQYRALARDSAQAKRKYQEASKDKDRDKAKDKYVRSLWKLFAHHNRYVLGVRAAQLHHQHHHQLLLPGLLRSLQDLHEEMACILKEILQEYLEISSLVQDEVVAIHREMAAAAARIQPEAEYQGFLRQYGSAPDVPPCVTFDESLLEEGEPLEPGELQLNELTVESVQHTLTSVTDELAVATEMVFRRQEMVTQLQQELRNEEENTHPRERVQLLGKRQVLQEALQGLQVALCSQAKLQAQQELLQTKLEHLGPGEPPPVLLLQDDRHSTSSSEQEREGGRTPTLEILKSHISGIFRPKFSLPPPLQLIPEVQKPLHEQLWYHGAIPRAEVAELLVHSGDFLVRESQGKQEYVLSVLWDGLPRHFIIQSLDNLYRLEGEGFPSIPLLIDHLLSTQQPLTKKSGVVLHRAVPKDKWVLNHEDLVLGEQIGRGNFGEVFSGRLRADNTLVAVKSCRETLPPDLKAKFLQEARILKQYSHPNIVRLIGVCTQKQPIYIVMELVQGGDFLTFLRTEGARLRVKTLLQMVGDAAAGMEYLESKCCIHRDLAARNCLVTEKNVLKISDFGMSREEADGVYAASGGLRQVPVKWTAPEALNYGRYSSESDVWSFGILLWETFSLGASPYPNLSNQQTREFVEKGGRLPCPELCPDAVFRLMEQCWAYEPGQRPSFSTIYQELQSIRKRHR
Chain of UniProt Q7L7X3 (whole entry, looked up): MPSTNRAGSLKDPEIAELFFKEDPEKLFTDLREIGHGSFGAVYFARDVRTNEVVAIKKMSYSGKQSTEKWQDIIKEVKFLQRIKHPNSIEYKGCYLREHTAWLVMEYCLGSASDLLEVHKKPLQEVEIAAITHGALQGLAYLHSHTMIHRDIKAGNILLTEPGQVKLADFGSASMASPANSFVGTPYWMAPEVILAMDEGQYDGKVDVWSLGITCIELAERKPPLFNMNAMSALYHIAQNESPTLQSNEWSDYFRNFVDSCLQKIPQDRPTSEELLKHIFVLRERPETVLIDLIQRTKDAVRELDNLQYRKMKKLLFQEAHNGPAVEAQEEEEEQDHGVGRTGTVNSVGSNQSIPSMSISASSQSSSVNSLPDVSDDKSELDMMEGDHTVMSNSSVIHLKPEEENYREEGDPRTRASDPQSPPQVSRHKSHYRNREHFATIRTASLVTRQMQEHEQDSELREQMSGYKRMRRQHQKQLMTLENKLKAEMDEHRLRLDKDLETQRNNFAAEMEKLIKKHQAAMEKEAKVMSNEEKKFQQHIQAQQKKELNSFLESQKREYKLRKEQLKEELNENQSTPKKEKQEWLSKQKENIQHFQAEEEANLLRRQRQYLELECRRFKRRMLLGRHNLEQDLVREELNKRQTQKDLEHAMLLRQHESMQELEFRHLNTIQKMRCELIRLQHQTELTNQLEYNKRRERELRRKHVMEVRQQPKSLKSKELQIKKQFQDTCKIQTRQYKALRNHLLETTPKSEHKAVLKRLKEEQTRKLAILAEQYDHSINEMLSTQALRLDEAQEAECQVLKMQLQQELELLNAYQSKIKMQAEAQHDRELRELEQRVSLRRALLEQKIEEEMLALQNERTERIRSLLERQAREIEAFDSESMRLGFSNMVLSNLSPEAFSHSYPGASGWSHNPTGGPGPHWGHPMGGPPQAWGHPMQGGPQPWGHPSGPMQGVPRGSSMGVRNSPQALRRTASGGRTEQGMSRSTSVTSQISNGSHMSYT
Chain of UniProt Q99755 (whole entry, looked up): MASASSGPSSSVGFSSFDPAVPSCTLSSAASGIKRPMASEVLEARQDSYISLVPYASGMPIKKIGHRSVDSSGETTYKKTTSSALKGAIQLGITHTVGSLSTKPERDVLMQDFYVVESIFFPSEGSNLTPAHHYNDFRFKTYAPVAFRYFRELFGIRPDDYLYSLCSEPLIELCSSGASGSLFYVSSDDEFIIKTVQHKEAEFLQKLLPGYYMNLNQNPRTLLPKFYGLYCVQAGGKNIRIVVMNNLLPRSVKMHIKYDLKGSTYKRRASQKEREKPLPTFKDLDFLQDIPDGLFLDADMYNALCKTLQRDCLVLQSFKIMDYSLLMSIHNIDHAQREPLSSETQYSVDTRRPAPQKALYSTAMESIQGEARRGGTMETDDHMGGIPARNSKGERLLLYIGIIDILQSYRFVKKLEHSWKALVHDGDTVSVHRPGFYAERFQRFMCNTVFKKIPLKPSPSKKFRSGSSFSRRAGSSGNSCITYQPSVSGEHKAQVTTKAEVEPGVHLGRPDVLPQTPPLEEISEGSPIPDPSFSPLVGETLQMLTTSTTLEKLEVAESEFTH

Block 1 — observed: cell-free assay; method: competition with immobilised ligand; concentration: 0.1 µM; endpoint: remaining binding
Compound: CNC(=O)c1ccc(Nc2ncc(C(F)(F)F)c(NCc3nccnc3N(C)S(C)(=O)=O)n2)cc1
target = PIP5K1A (Homo sapiens, UniProt Q99755); value = 98%
target = ROCK1 (Homo sapiens, UniProt Q13464); value = 100%
target = GSK3B (Homo sapiens, UniProt P49841); value = 87%
target = NTRK2 (Homo sapiens, UniProt Q16620); value = 21%
target = MAP3K7 (Homo sapiens, UniProt O43318); value = 57%
target = KIT (Homo sapiens, UniProt P10721, T670I/V559D); value = 100%
target = DYRK2 (Homo sapiens, UniProt Q92630); value = 76%
target = EPHA1 (Homo sapiens, UniProt P21709); value = 98%
target = FES (Homo sapiens, UniProt P07332); value = 82%
target = TAOK1 (Homo sapiens, UniProt Q7L7X3); value = 50%
target = MAPK8 (Homo sapiens, UniProt P45983); value = 100%
target = ALK (Homo sapiens, UniProt Q9UM73); value = 58%
target = CDK2 (Homo sapiens, UniProt P24941); value = 97%
target = PIK3C3 (Homo sapiens, UniProt Q8NEB9); value = 100%
target = HIPK2 (Homo sapiens, UniProt Q9H2X6); value = 37%
target = DAPK3 (Homo sapiens, UniProt O43293); value = 75%
target = CDK17 (Homo sapiens, UniProt Q00537); value = 88%
target = EGFR (Homo sapiens, UniProt P00533, del747-752/P753S); value = 82%
target = KIT (Homo sapiens, UniProt P10721, V559D/V654A); value = 100%

Block 2 — observed: enzyme activity; action: inhibitor; concentration: 0.5 µM; baseline: control; endpoint: remaining activity
Target: Focal adhesion kinase 1 (PTK2, Homo sapiens, UniProt Q05397)
Chain of UniProt Q05397 (whole entry, looked up): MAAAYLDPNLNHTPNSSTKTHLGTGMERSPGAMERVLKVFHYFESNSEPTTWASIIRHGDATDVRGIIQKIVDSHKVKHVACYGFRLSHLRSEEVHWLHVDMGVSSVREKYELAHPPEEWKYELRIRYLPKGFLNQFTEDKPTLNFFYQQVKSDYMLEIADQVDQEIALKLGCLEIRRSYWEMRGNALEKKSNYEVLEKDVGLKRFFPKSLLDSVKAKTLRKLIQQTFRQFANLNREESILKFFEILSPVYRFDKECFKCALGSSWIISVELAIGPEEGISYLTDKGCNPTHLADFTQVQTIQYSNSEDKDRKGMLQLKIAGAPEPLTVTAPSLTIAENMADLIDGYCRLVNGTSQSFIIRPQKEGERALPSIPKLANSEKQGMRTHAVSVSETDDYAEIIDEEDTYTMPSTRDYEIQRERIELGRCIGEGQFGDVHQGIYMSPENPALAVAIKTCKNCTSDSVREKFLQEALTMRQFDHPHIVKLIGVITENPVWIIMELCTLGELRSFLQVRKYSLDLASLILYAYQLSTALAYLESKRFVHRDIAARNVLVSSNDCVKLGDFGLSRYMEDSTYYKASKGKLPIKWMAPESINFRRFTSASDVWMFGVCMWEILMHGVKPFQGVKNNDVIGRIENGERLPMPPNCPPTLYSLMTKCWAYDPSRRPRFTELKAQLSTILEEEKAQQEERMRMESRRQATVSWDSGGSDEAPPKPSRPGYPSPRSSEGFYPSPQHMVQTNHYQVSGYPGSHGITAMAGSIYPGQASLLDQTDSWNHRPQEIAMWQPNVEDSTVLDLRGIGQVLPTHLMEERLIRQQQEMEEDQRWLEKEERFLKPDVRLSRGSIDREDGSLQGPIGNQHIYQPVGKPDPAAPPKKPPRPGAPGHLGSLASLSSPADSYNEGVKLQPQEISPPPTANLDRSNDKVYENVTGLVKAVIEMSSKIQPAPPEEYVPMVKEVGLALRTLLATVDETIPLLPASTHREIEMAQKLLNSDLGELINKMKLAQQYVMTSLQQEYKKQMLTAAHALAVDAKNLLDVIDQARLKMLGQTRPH
Compound = O=C1Nc2ccccc2/C1=C\c1c(Cl)[nH]c2ccccc12; value = 101%
Compound = CN(C)S(=O)(=O)c1ccc2c(c1)/C(=C/c1cc3c([nH]1)CCCC3)C(=O)N2; value = 33.1%
Compound = O=C1NC(=O)c2c1c1c3ccccc3[nH]c1c1[nH]c3cc(Br)ccc3c21; value = 91.8%
Compound = O=Nc1c(-c2c(O)[nH]c3cc(Br)ccc23)[nH]c2ccccc12; value = 89%
Compound = O=C1Nc2ccc(Br)cc2/C1=C/c1cc2c([nH]1)CCCC2; value = 81.9%
Compound = COc1cccc(-c2cc(=O)c3ccccc3o2)c1N; value = 98.2%
Compound = COc1ccc2c(c1)c(C1=C(c3c[nH]c4ccccc34)C(=O)NC1=O)cn2CCCN(C)C; value = 88.2%
Compound = O=C1Cc2c([nH]c3ccc(Br)cc23)-c2ccccc2N1; value = 94.3%
Compound = c1ccc2c(-c3ccncc3)c[nH]c2c1; value = 97.7%
Compound = CCCNC(=O)Nc1ccc(Oc2ncnc3cc(OC)c(OC)cc23)cc1Cl; value = 99.6%
Compound = COc1ccc(COc2ccc(Cc3cnc(N)nc3N)cc2OC)cc1; value = 95.5%
Compound = Cc1cc(Nc2cc(N3CCN(C)CC3)nc(Sc3ccc(NC(=O)C4CC4)cc3)n2)[nH]n1; value = 100%
Compound = O=C(c1cc2cc(O)ccc2[nH]1)c1cc2cc(O)ccc2[nH]1; value = 109%
Compound = O=C1NC(=O)c2c1c1c3ccccc3[nH]c1n1cncc21; value = 56.9%
Compound = c1ccc(-c2n[nH]c3c2oc2ccccc23)cc1; value = 94.7%
Compound = O=c1cc(N2CCOCC2)oc2c(-c3ccccc3)cccc12; value = 103%
Compound = CCCCc1c(-c2ccc(OC)cc2)[nH]c2nccnc12; value = 81.7%
Compound = N#Cc1cnc2cnc(NCc3cccnc3)cc2c1Nc1ccc(F)c(Cl)c1; value = 99.6%
Compound = Cc1ccc(S(=O)(=O)/C=C/C#N)cc1; value = 104%

Block 3 — species: mouse; matrix: microsomes or S9; concentration: 2 µM; time: 0.5 h; endpoint: remaining compound
SMILES = CC(C)(C)c1cc(O)c2o/c(=N\c3ccc(S(N)(=O)=O)cc3)c(C(N)=O)cc2c1; value = 77.7%
SMILES = Cc1ccc(-c2noc3c(N(C)Cc4ccccc4)ncnc23)cc1; value = 3.6%
SMILES = CCOc1cc(-c2ccccc2)nn1Cc1ccc2cccnc2c1; value = 0.723%
SMILES = CCC(=O)N(CCOC)CC(=O)N1N=C(c2cccs2)CC1c1sccc1C (centres unmarked); value = 5.84%
SMILES = CCOC(=O)N1CCN(C(=O)c2cc(-c3ccccc3)nn2C)CC1; value = 19.5%
SMILES = Cn1cnnc1C1CCCN1c1ncnc2c1c(Br)nn2C (centres unmarked); value = > 100%
SMILES = CC(C)c1nc(OCCCN(C)C)c(C#N)c2c1CCCC2; value = 2.46%
SMILES = COc1cc(=O)[nH]cc1C(=O)N1CCNC(c2ccccc2)C1 (centres unmarked); value = 87.8%
SMILES = O=C(C(F)CC1CCCCC1)N1CCC(N2CCCCC2=O)CC1 (centres unmarked); value = 0.581%
SMILES = Cc1cc(C(=O)COC(=O)c2ncc(Cl)c(Cl)c2Cl)c(C)n1-c1nccs1; value = 15.6%
SMILES = CCn1cnnc1-c1nn(C)c2c1CN(C(=O)c1ccc(Cc3c(C)n[nH]c3C)o1)CC2; value = 31%
SMILES = CCc1cnc(NCCCn2ccnc2CC)nc1; value = 41.3%
SMILES = Cc1c(C(=O)Nc2ccc3c(c2)NC(=O)C(C)O3)oc2ccc(F)cc12 (centres unmarked); value = < 1%
SMILES = CNC(=O)c1cc(S(=O)(=O)NC(C)C)cs1; value = 95%

Block 4 — observed: enzyme activity; action: inhibitor; concentration: 10 µM; endpoint: inhibition
Target: Calcium/calmodulin-dependent protein kinase type II subunit alpha (CAMK2A, Homo sapiens, UniProt Q9UQM7)
Chain of UniProt Q9UQM7 (whole entry, looked up): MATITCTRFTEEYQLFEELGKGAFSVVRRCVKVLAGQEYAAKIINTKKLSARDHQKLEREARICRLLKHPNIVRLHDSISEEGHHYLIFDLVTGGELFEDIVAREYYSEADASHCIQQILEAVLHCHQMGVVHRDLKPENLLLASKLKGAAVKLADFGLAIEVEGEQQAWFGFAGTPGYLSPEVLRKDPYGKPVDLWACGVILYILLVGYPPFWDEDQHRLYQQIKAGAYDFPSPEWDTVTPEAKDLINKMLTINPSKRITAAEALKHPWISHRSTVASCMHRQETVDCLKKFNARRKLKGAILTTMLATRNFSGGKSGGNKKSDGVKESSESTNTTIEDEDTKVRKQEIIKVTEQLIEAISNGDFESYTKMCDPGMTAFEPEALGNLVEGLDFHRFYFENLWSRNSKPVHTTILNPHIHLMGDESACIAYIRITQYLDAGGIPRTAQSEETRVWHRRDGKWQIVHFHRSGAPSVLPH
Compound = O=c1ccn([C@@H]2O[C@H](COP(=O)(O)OP(=O)(O)OP(=O)(O)O)[C@@H](O)[C@H]2O)c(=O)[nH]1; value = 2%
Compound = CC(C)=CCC/C(C)=C/COc1c2occc2cc2ccc(=O)oc12; value = -20%
Compound = CNc1ccc(/C=C/c2ccc(OCCOCCOCCF)nc2)cc1; value = 5%
Compound = O=c1[nH]c(=O)n([C@H]2C[C@H](O)[C@@H](CO)O2)cc1/C=C/Br; value = -5%
Compound = O=C[C@H](O)[C@@H](O)[C@@H](CO)O[C@@H]1OC[C@@H](O)[C@H](O)[C@H]1O; value = 1%
Compound = O=c1oc2c(O)c(O)cc3c(=O)oc4c(O)c(O)cc1c4c23; value = -4%
Compound = CC[C@@]1(O)C(=O)OCc2c1cc1n(c2=O)Cc2cc3c([N+](=O)[O-])cccc3nc2-1; value = -8%
Compound = COc1ccccc1/C=C/C(=O)O; value = -6%
Compound = COc1cc2ncnc(Nc3ccc(F)c(Cl)c3)c2cc1OCCN1CC2(CC2)C2(C1)OCCO2; value = -4%
Compound = N[C@H](CS)C(=O)O; value = -4%

A few entries again (block 2):
Compound = CN(C)S(=O)(=O)c1ccc2c(c1)/C(=C/c1cc3c([nH]1)CCCC3)C(=O)N2; value = 33.1%
Compound = O=C1NC(=O)c2c1c1c3ccccc3[nH]c1c1[nH]c3cc(Br)ccc3c21; value = 91.8%
Compound = O=Nc1c(-c2c(O)[nH]c3cc(Br)ccc23)[nH]c2ccccc12; value = 89%
Compound = O=C1Nc2ccc(Br)cc2/C1=C/c1cc2c([nH]1)CCCC2; value = 81.9%
